Experimental data gathered from unrelated publications.
Parts stem from different laboratories: compare values within a part only.

Sample 1 — technique: universal PBM; form: double-stranded DNA, one strand shown; sample: in vitro; concentration: not given; reading: higher = stronger binding
Target: Sal-like protein 4, full length isoform B (SALL4, Homo sapiens, UniProt Q9UJQ4-2, residues 1-616)
Setting: 8-mer, flanks averaged, mean of replicates
Sequence	E-score
CTCAGATC	-0.0828
CACGCGGC	-0.236
GTCTAACA	-0.0161
ATGCTACC	0.0401
ACGACTGC	-0.126
CCACGCGA	-0.216
GTAGCTAA	-0.0589
AAGCATCT	0.0717

Sample 2 — technique: protein-binding microarray; form: double-stranded DNA, one strand shown; sample: in vitro; concentration: not given; reading: higher = stronger binding
Target: Max-binding protein MNT, bHLH-zipper, MAX partner unstated (MNT, Homo sapiens, UniProt Q99583, residues 220-300)
Setting: k-mer, scored over probes, only values ≥0.25
Residues (chain): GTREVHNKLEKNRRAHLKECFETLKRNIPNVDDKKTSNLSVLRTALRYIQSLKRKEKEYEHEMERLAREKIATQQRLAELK
Sequence	E-score
ATGCACGC	0.421
CGACATGC	0.346
AGTCACGC	0.431
CCTCCACG	0.329
ACGAGGTG	0.304

Sample 3 — technique: protein binding microarray; form: double-stranded DNA, one strand shown; sample: in vitro; concentration: not given; baseline: not given; reading: higher = stronger binding
Target: Histone acetyltransferase KAT6A, winged helix 2, GST fusion (KAT6A, Homo sapiens, UniProt Q92794, residues 85-181)
Setting: 8-mer, flanks averaged, mean of 2 arrays, mostly near background
Construct (chain): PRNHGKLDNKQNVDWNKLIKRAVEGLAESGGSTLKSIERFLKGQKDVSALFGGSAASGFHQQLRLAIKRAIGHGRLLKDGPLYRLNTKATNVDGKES
Sequence	E-score
AGTGAATA	0.00617
TGTCCAAA	0.0488
ACGGTTTG	0.0335
CGAAATAA	0.151
ACACGAGC	0.0086
AATATGAT	0.0526
AGATCCCA	0.00549
CAAGCAAC	0.0976

Mixed results
Substance	target	assay	system	conditions	how to read	endpoint	result
PhoQ, residues 284 288 289 292 302 303 SIHMAM	PhoP, residues 12 14 15 18 19 LWHVM (Escherichia coli, UniProt P23836)	Sort-seq, item: YFP reporter	E. coli	PhoQ-PhoP variant library, with: 10 µM Mg2+	baseline: high Mg2+ state, higher = stronger signaling	fold induction	3.79
